Assay results of several laboratories.
Every numbered part comes from another study and shows a few of its results, in no order. Changes are numbered by the printed parent chain.

Set 1
Target: CCNB1, cyclin fold, Cln2 fusion (human)
Technique: yeast growth competition, sequencing
Medium: yeast
Setting: weak parent motif
Relative to: not given
Direction: higher = stronger binding
Measurement: normalised enrichment score
Starting sequence: CDC6 docking peptide (human); TLKGRRLVFDNQL
R5L: 0.257
R6M: 0.828
L7V: 0.14
V8H: 0.715
L2M: 0.356
L13I: 0.103
R6L: 0.36
D10R: 1.13
T1K: 0.224
D10W: 0.171
T1H: 0.264
K3L: -0.0102
Q12P: 0.42
K3S: 0.469
T1D: -0.798
G4T: 0.491
Q12K: 0.554
R6C: 0.368
K3M: 0.332
N11H: 0.193

Set 2
Target: RNA binding protein fox-1 homolog 2, RRM domain, GST-SBP tag (RBFOX2, Homo sapiens, UniProt O43251-10, residues 100-194)
Technique: RNA Bind-n-Seq
Form: RNA
Medium: in vitro
Tested at: 365 nM
Setting: natural RNA segment, single round, ends assumed
Relative to: no-protein control
Direction: higher = stronger binding
Measurement: RBNS enrichment (R)
Residues (chain): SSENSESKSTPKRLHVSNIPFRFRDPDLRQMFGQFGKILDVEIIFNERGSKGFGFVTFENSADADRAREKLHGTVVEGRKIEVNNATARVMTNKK
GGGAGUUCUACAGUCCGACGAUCUUUGGGACCAAAGUCCUCUCCUUAGUGCGCCUACUUCCUGUGGGCAUCAUGCCACUUGGAACUUAUUGGAACUGGCCCGGGAGACUCUGCAGUCUGCGCCGUUUGAAAACUGGAAUUCUCGGGUGCCAA: 0.648
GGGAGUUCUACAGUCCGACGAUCGUGGCGGUGGUGGCAGCAGUGAUCCAUGAGCCUACAGAGGCCCCUCCCCCAGCCAGGUUCUGCUCUGGCUGGGCCCUUGGCUGGACUCCUAUUCAAAUUUAUUUGACGUUUGGAAUUCUCGGGUGCCAA: 0.313
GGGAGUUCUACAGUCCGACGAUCGAGUGCCACAGGAAGGGUAGGCCCUGGGACAGUGGCUUCAAGUGUCUUUGAGCAAGUAGGCAAGAUAAGCUCUUCCUUCGUCACAGCCAUGACCAUCAGGUUAGUAACCGUGGAAUUCUCGGGUGCCAA: 0.46
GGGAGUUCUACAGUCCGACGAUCAGAGGUAGCCUCUGCAAAUGGCAUACCAGAUGGGACUCUAAGAUGCUUGUGUGGUGGCUUCUUGUCCUUCUCUUUGACUUCUGUGGCAUGGUGCUAGUGCAUGUACCCUGUGGAAUUCUCGGGUGCCAA: 11.4
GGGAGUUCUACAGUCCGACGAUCGAAUAUUGCAAAAGGGAGAGGAAGGGGCCUUAUGGGAAUAGUGAAAAGGCUCAGACCGACCGAUGGCAAGAUCUGCAAGCGUCUCAAAGCCCAGGCAGAAAAGGACUUUUUGGAAUUCUCGGGUGCCAA: 0.739
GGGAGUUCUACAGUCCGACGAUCCUAGACUGCGGAUUGGCGUGACAAAGCAAUGGCUGUGUCAGCUGGGCCUUCAUCCAGGAACAGACCAACAUAAACCAGCAUCUUCUACCAGUUAGCACUGUCCUCCUGGAUGGAAUUCUCGGGUGCCAA: 4.88
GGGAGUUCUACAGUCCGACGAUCCAUGAUACUCUUCGGUGGUAGUUUCAAAAGACACUACUAAUACGCAGGAAGCGUUCCAGCUAUUUAAUGCUGGCAACUACUGUUUAAUGGUCAGUUAAAUCUGUGAUAAUUGGAAUUCUCGGGUGCCAA: 0.251
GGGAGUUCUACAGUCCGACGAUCUUAUAGGGUCCCUGAAUCACUGAUCUUCAACAGGGCAUUUUAAUAUUAGCAUUAGUGUGCACAGGGUACUUUUGAAAUGGUUUUGGAUAGAUUUACAAUAUGUAAGAUUAUGGAAUUCUCGGGUGCCAA: 0.797
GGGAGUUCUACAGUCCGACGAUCCCUUUGCUAAACCAGAGGAUAAAAAAGGAGAGUAUGAGUACAUAAAAAUCUAUCUUUGAUACAUUUUAUUUUUAUGCCCUACUUAAUAUUUGCAUCAGUAUAAUAUAUAUUGGAAUUCUCGGGUGCCAA: 0.315
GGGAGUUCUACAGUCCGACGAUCAUUGUGAAUCCUGCUGUCUGUGCAGGGCUCAUAGUGAGUGUUCUGUGAGGUGGGUGGAGACUCCUCGGAAGCCCCUGCUUCCAGAAAGCCUGGGAAGAACUGCCCUUCUGUGGAAUUCUCGGGUGCCAA: 0.282
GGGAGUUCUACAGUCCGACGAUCGUGUAUUUUUGUUUUUUAUAGUUCUAGGUUUACAACAGAGAGGAGUUAAUUUAUCAACAGCCUAAAACUGUUGCCAGGUCAUCUUACAGUUUAAAACAUGCCAUCUCAUCUGGAAUUCUCGGGUGCCAA: 0.383
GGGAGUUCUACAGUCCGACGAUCUCCCAGCGAAGGGGGACCGCCGUUUGCACUUUCAUCGCCUACCCCGACGCGGGGCCCAGCUGCGGGACGUGCAUCACGGCUGGGCCCCCAGAGGAGAGAGGAGGCCGACGUGGAAUUCUCGGGUGCCAA: 0.35

Set 3
Target: RING finger protein unkempt homolog, zinc fingers 1-6, GST-SBP tag (UNK, Homo sapiens, UniProt Q9C0B0, residues 30-357)
UniProt Q9C0B0, sequence (30-357, looked up): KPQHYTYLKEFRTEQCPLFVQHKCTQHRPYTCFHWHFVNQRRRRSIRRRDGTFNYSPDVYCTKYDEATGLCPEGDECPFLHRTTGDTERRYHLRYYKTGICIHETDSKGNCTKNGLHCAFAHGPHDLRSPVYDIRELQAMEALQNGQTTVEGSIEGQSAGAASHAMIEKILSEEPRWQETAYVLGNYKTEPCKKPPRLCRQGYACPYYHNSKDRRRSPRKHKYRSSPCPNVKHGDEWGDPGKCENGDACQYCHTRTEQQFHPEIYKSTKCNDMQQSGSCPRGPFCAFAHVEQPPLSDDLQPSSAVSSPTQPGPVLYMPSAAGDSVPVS
Technique: RNA Bind-n-Seq
Form: RNA
Medium: in vitro
Tested at: not given
Setting: RNA with constant flanks, ends assumed
Relative to: input RNA pool
Direction: higher = stronger binding
Measurement: bound/input enrichment
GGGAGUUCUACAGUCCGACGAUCGGGCAGACUAAGACAGUCAGAGUGUUCCGCUUUAUAACUGAUAACACUGUAGAAGAAAGAACCGCCGAACGUGCUGAGAUGAAACUCAGACUGGAUUCAAUAGUCAUUCAACAAGGGAGGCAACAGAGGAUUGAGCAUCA: 0.52 ratio
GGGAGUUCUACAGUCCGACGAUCAUUUUCACAAGAAUGUUUGCAGAUCCUCAUGGCAAGGUGUUCAGCAUGUUCUUGGAGACUCCCGCCGAUUUCAUACAAGUCCACAAAGAUGAUCUUCAAGAUUGGUUGUUUGUUCUGCUGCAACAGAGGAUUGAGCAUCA: 0.126 ratio
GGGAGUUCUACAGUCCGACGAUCUUUCCUCACAAAUGUGAGGUCUGUGAUAAAGGUUUUCAUCGUCCUUCUGAGCUCAAAAAGCACCGUGAUAUCCAUAAGGGUAGGAAGAUUCAUCAGUGCAGGCACUGUGACUUUAAAACACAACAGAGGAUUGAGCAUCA: 0.132 ratio
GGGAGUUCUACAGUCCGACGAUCUCAAGGAAAACAUCAACUGAAUGUGCAUCUAGUACAGAAAAUUCUUUCGUUGUCAGCAGCCGUUCAGUUUCUAAUACCACUGUUGCUGGAACUCCCCCAUACCCUACAAGUCGGAGGCAACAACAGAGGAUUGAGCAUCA: 0.19 ratio
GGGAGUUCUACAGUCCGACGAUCCUGUGAGCGUCUACAGACAGCUCACCAUUUUUGUCCUGUAUCUGUAAACACUUUUUGUUCUCCGUCUUUUUCUUGUAAAAUUGAUGUUCUUUAAAAUCGUUAAUGUAUAACAGGGCUUAUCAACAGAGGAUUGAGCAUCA: 0.194 ratio
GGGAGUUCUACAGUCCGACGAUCGCAGUAAUGACUACCUAGGCAUGAGUCGACACCCACGGGUGUGUGGGGCUGUCAUGUGAGCCGCUCUCAGUUUUCACCUACCACAGGCGUUAUUUGGCAGGACUUGGGUGGCUUGUACAGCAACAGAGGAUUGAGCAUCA: 0.182 ratio
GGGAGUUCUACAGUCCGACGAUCCUUGUGGAGAAGGUGCUUCCUGGGCACUUCAAUACCUUUGGUGCCGAAAGGCUGUUUCGCUCCGCUUCUAACUAUAUUUCAAAAGCUGGGAUAUGCCACAAAGUGUCUACUUUUGCCAUGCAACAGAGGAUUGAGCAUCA: 0.105 ratio

Further values, each from its own experiment
PhoQ, residues 284 288 289 292 302 303 SASVAL  fold induction (PhoP, residues 12 14 15 18 19 GQAIL (Escherichia coli, UniProt P23836); Sort-seq, measured: YFP reporter; E. coli; PhoQ-PhoP variant library, added: 10 µM Mg2+; relative to: high Mg2+ state, higher = stronger signaling): 1.72

Some of these lines once more (set 2):
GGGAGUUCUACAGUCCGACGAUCGUGGCGGUGGUGGCAGCAGUGAUCCAUGAGCCUACAGAGGCCCCUCCCCCAGCCAGGUUCUGCUCUGGCUGGGCCCUUGGCUGGACUCCUAUUCAAAUUUAUUUGACGUUUGGAAUUCUCGGGUGCCAA: 0.313
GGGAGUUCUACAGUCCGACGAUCAGAGGUAGCCUCUGCAAAUGGCAUACCAGAUGGGACUCUAAGAUGCUUGUGUGGUGGCUUCUUGUCCUUCUCUUUGACUUCUGUGGCAUGGUGCUAGUGCAUGUACCCUGUGGAAUUCUCGGGUGCCAA: 11.4
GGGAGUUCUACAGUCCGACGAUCAUUGUGAAUCCUGCUGUCUGUGCAGGGCUCAUAGUGAGUGUUCUGUGAGGUGGGUGGAGACUCCUCGGAAGCCCCUGCUUCCAGAAAGCCUGGGAAGAACUGCCCUUCUGUGGAAUUCUCGGGUGCCAA: 0.282
